{"data": "Results from different studies", "note": "Lines come from different studies, so protocols differ."}
{"Structure (SMILES)": "CO[C@H]1CC[C@H](N2C(=O)CNc3ncc(-c4ccc(C(C)(C)O)nc4)nc32)CC1", "system": "patients, plasma", "conditions": "oral, 15 mg, day 15", "quantity": "Tmax", "value": "2 h"}
{"Structure (SMILES)": "O=C([O-])CCCCCCCNC(=O)c1ccccc1O.[Na+]", "system": "healthy postmenopausal women", "conditions": "300 mg, oral contraceptive alone, median", "quantity": "tmax", "value": "0.5 h"}
{"Structure (SMILES)": "CN(CCC(=O)O)C(=O)c1ccc2c(c1)CC[C@@H]1[C@@H]2CC[C@]2(C)C(c3cncc(F)c3)=CC[C@@H]12", "system": "postmenopausal women, plasma", "conditions": "90 mg once daily multiple dose, day 14, median", "quantity": "Tmax", "value": "3 h"}
{"Structure (SMILES)": "CCCCC[C@H](O)CC[C@@H]1[C@H]2Cc3cccc(OCC(=O)O)c3C[C@H]2C[C@H]1O", "test": "LC-MS/MS", "system": "Japanese PAH patients, female, plasma", "conditions": "inhaled, 54 µg, mean", "quantity": "Tmax", "value": "0.15 h"}
{"Structure (SMILES)": "C[C@@](Cc1ccc(O)c(O)c1)(NN)C(=O)O", "system": "Parkinson's disease patients, plasma", "conditions": "oral, low levodopa Cmax subgroup (<9 µmol/L), median", "quantity": "Tmax", "value": "2 h"}
{"Structure (SMILES)": "O=C(Nc1cnccc1Cl)N1CCN(Cc2ccc3c(c2)OC(F)(F)O3)CC1", "system": "healthy young men, plasma", "conditions": "oral, 10 mg once daily, day 10", "quantity": "tmax (median)", "value": "1 h"}
{"Structure (SMILES)": "C[C@@H](N)C1CCN(S(=O)(=O)c2cccc3cnccc23)CC1", "system": "healthy volunteers, fasted, plasma", "conditions": "oral, 75 mg", "quantity": "tmax", "value": "0.5 h"}
{"Structure (SMILES)": "C=CC(=O)NC1CCN(c2ncc3ncnc(Nc4ccc(Oc5ccc6c(c5)ncn6C)c(C)c4)c3n2)CC1", "test": "measured: compound", "system": "healthy male volunteers, plasma", "conditions": "oral solution, 60 mg", "quantity": "tmax", "value": "1 h"}
{"Structure (SMILES)": "CCOc1c([C@H](C)n2nc(C)c3c(N)ncnc32)cc(Cl)c(F)c1[C@@H]1CNC(=O)C1", "system": "patients, monotherapy", "conditions": "oral, 45 mg once daily, cycle 1 day 15", "quantity": "Tmax median", "value": "0.5 h"}
{"Structure (SMILES)": "COc1nnc2ccc(N3CCC(c4ccc(OCCN5CCN(C)C(=O)[C@H]5C)cc4)CC3)nn12", "system": "patients, plasma", "conditions": "oral, 10 mg twice daily, single dose, monotherapy, median", "quantity": "Tmax", "value": "2.02 h"}
{"Structure (SMILES)": "C[C@H]1CN(C(=O)CC#N)[C@]12CCN(c1ncnc3[nH]ccc13)C2", "system": "healthy Japanese males, plasma", "conditions": "oral, 25 mg single dose", "quantity": "Tmax", "value": "1 h"}
{"note": "A few entries again:"}
{"Structure (SMILES)": "C=CC(=O)NC1CCN(c2ncc3ncnc(Nc4ccc(Oc5ccc6c(c5)ncn6C)c(C)c4)c3n2)CC1", "test": "measured: compound", "system": "healthy male volunteers, plasma", "conditions": "oral solution, 60 mg", "quantity": "tmax", "value": "1 h"}
{"Structure (SMILES)": "O=C([O-])CCCCCCCNC(=O)c1ccccc1O.[Na+]", "system": "healthy postmenopausal women", "conditions": "300 mg, oral contraceptive alone, median", "quantity": "tmax", "value": "0.5 h"}
